Results of several laboratories.
Parts stem from different laboratories: compare values within a part only. “And” joins repeats or separate records; there may be more than shown.
Chain of UniProt Q8N752 (whole entry, looked up): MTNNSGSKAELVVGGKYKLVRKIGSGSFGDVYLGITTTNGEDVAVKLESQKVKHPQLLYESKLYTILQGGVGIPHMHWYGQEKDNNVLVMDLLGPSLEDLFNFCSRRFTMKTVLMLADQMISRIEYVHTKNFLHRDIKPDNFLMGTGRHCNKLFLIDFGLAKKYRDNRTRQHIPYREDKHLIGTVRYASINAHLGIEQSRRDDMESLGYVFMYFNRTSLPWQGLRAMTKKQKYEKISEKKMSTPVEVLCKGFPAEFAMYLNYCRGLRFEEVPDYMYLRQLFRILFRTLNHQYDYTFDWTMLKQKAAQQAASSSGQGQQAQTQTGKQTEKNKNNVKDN
Chain of UniProt P29597 (whole entry, looked up): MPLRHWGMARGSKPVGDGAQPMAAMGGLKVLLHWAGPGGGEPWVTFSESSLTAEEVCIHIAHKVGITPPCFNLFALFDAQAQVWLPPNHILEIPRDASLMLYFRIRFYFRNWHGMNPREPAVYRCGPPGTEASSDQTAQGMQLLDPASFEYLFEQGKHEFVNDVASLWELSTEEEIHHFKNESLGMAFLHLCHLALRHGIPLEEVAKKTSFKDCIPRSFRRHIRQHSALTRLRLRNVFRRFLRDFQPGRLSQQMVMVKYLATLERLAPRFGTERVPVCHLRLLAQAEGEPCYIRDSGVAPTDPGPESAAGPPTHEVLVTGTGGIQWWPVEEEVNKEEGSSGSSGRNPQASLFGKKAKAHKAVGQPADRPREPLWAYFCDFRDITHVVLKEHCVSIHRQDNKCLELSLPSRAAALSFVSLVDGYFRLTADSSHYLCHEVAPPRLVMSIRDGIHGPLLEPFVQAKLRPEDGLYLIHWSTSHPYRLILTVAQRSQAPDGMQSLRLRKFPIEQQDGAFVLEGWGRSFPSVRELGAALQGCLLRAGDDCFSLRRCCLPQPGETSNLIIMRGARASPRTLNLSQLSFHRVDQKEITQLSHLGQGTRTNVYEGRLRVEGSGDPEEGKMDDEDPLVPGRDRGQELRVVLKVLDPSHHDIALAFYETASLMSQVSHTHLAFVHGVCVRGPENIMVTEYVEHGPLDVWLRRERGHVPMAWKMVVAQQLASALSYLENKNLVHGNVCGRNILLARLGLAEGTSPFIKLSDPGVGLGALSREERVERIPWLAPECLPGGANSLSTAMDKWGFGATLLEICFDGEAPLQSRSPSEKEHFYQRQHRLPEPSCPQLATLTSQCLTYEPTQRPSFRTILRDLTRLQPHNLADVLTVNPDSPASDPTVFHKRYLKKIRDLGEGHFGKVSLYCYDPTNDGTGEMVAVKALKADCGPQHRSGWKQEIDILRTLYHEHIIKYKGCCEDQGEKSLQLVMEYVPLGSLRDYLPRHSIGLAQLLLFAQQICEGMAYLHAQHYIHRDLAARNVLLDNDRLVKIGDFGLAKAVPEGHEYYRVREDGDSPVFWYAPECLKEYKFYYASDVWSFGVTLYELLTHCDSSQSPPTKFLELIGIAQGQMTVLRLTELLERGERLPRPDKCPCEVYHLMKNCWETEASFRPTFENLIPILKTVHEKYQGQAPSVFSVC
Chain of UniProt Q9NSY1 (whole entry, looked up): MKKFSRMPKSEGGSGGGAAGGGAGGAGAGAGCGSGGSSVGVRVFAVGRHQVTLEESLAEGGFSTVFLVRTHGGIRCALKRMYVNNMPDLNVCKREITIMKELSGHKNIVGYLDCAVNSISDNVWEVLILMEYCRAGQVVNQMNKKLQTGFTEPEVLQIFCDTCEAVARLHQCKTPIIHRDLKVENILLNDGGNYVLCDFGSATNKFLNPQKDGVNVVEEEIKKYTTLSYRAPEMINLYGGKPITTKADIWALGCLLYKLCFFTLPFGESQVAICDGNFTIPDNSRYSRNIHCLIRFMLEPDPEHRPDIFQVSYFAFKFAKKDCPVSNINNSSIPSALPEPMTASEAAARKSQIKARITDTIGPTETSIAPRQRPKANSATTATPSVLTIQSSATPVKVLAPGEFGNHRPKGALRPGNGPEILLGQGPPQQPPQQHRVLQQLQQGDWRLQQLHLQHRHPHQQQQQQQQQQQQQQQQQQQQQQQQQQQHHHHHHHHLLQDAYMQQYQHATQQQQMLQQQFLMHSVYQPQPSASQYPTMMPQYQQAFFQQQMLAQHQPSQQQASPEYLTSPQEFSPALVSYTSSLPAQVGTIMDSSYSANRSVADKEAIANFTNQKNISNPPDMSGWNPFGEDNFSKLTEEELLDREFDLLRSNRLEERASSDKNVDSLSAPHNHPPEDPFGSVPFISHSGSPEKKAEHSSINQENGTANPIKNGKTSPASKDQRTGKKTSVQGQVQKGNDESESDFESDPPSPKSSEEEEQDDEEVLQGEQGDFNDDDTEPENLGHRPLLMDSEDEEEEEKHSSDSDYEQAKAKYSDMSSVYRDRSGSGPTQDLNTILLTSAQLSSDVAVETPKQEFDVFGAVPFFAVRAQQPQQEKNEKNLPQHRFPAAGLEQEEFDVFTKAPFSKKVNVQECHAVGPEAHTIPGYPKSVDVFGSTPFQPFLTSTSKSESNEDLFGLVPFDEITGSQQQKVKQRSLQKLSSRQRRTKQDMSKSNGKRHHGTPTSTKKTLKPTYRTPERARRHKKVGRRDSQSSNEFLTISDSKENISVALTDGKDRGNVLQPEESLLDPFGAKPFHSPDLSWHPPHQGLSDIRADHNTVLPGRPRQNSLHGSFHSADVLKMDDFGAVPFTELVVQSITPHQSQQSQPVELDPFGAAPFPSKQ
Chain of UniProt P42681 (whole entry, looked up): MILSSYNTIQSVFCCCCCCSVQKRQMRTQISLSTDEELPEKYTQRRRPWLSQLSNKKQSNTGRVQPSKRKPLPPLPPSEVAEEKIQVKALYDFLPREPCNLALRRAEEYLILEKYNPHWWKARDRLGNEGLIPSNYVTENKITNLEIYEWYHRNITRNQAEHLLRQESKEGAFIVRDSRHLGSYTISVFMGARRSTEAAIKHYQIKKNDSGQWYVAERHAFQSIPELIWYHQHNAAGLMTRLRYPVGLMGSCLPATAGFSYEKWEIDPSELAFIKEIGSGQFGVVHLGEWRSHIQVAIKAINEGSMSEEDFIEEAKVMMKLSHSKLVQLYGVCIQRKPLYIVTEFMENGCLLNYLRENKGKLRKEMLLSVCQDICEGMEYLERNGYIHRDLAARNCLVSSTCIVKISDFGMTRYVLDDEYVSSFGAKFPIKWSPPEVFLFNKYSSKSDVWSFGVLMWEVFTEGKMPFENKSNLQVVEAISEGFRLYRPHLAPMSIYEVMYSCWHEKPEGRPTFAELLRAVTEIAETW
Chain of UniProt P48730 (whole entry, looked up): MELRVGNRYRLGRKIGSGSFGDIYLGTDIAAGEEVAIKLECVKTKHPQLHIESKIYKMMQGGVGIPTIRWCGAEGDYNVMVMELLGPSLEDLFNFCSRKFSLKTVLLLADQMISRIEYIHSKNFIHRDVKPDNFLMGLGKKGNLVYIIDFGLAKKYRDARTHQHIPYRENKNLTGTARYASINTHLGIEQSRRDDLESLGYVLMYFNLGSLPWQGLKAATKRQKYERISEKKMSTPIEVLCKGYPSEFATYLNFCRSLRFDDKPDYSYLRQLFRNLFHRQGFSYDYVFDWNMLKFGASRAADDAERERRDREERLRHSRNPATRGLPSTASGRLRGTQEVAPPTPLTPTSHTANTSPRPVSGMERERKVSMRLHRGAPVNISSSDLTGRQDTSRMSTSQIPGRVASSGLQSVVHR

Sample 1 — cell line: mouse MPNST tumor cells; technique: high-content nuclear imaging; measured: cell number; tested at: 10 µM; time: 12 h; notes: mean of 2 replicates; reference: plate mean; reading: higher = more cells; endpoint: nuclei count
Structure (SMILES) = O=C(O)C[C@H](O)C[C@H](O)/C=C/c1c(C2CC2)nc2ccccc2c1-c1ccc(F)cc1; result = -4.46 z-score
Structure (SMILES) = CC(C)(C)C1CCc2c(sc(NC(=O)c3ccco3)c2C(=O)O)C1 (centres unmarked); result = 1.25 z-score
Structure (SMILES) = CCN(CC)CC#CCOC(=O)C(O)(c1ccccc1)C1CCCCC1 (centres unmarked); result = 2.03 z-score
Structure (SMILES) = CC(=Nc1ccccc1N)c1c(C)cc(=O)n(O)c1O; result = -0.263 z-score
Structure (SMILES) = Nc1ccc(S(=O)(=O)Nc2ccccn2)cc1; result = -0.111 z-score
Structure (SMILES) = CNCCC=C1c2ccccc2C=Cc2ccccc21; result = -4.22 z-score
Structure (SMILES) = CCCCc1oc2ccc(NS(C)(=O)=O)cc2c1C(=O)c1ccc(OCCCN(CCCC)CCCC)cc1; result = -5.92 z-score
Structure (SMILES) = CCN1CCCC(OC(=O)C(c2ccccc2)c2ccccc2)C1 (centres unmarked); result = 1.69 z-score
Structure (SMILES) = c1ccc(-c2ccc(CNc3nc(-c4ccccn4)nnc3-c3ccccc3)cc2)cc1; result = 0.814 z-score
Structure (SMILES) = O=C(Nc1cccc2c(=O)cc(-c3nn[nH]n3)oc12)c1ccc(OCCCCc2ccccc2)cc1; result = 0.899 z-score
Structure (SMILES) = CC(=O)O[C@@]12CO[C@@H]1C[C@H](O)[C@@]1(C)C(=O)[C@H](O)C3=C(C)[C@@H](OC(=O)[C@H](O)[C@@H](NC(=O)OC(C)(C)C)c4ccccc4)C[C@@](O)([C@@H](OC(=O)c4ccccc4)[C@H]21)C3(C)C; result = -4.39 z-score and -4.86 z-score and -0.499 z-score
Structure (SMILES) = Cc1noc(C)c1Cn1cc(C#N)c2cc(Oc3ccc(NC(=O)[C@@H]4CCCN4)cc3)ccc21; result = 1.35 z-score
Structure (SMILES) = Cc1oc(-c2cccs2)cc1C(=O)O; result = 0.83 z-score

Sample 2 — observed: enzyme activity; action: inhibitor; tested at: 10 µM; endpoint: inhibition
Target: Calcium/calmodulin-dependent protein kinase type II subunit alpha (CAMK2A, Homo sapiens, UniProt Q9UQM7)
Chain of UniProt Q9UQM7 (whole entry, looked up): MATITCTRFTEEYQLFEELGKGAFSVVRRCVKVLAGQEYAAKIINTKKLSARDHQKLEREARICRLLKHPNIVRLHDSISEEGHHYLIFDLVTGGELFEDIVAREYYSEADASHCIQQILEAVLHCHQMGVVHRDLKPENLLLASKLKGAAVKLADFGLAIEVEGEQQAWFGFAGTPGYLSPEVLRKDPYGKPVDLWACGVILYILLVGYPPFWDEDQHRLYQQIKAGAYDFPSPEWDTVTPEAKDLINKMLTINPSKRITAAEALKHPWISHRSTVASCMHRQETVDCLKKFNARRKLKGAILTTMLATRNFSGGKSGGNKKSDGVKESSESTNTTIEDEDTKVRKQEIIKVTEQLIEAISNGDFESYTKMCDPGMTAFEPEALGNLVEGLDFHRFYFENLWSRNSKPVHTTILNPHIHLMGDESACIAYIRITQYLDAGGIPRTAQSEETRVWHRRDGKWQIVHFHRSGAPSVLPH
Compound = CCNC(=O)[C@@H]1CCCN1C(=O)[C@H](CCCN=C(N)N)NC(=O)[C@H](CC(C)C)NC(=O)CNC(=O)[C@H](Cc1ccc(O)cc1)NC(=O)[C@H](CO)NC(=O)[C@H](Cc1c[nH]c2ccccc12)NC(=O)[C@H](Cc1cnc[nH]1)NC(=O)[C@@H]1CCC(=O)N1; result = 5%
Compound = Cc1ccc2oc(-c3ccccc3)cc(=O)c2c1; result = -8%
Compound = O=C(CCc1ccc(O)cc1)c1c(O)cc(O)cc1O[C@@H]1O[C@H](CO)[C@@H](O)[C@H](O)[C@H]1O; result = 22%
Compound = CCOC(=O)[C@@](C)(N)Cc1ccc(O)c(O)c1; result = -5%
Compound = COc1cc([C@H]2OC[C@H]3[C@@H]2CO[C@@H]3c2ccc(O[C@@H]3O[C@H](CO)[C@@H](O)[C@H](O)[C@H]3O)c(OC)c2)ccc1O[C@@H]1O[C@H](CO)[C@@H](O)[C@H](O)[C@H]1O; result = -22%
Compound = CCC(C)CC(=O)O (centres unmarked); result = -14%
Compound = COc1cc(/C=C/C(=O)NCC(O)c2ccc(O)cc2)ccc1O (centres unmarked); result = -11%
Compound = COC1=C2C[C@@H](C)C[C@H](OC)[C@H](O)[C@@H](C)/C=C(\C)[C@H](OC(N)=O)[C@@H](OC)/C=C\C=C(/C)C(=O)NC(=CC1=O)C2=O; result = 17%
Compound = O=C(O)c1cc(O)c2c(c1)C(=O)c1cccc(O)c1C2=O; result = 2%
Compound = C[C@H]1NCc2cc(-c3ccc4c(=O)c(C(=O)O)cn(C5CC5)c4c3OC(F)F)ccc21; result = -9%
Compound = COc1cc(CC(=O)O)ccc1O; result = -14%
Compound = COc1ccc(-c2cc(=O)c3c(O)cc(O[C@@H]4O[C@H](CO[C@@H]5O[C@@H](C)[C@H](O)[C@@H](O)[C@H]5O)[C@@H](O)[C@H](O)[C@H]4O)cc3o2)cc1; result = -5%
Compound = CN(C/C=C/C#CC(C)(C)C)Cc1cccc2ccccc12; result = -6%
Compound = COC(=O)C1=CC[C@@]23CC[C@@H]([C@@](C)(/C=C/C=C(\C)C(=O)O)OC2=O)[C@@]3(OC(C)=O)CC1; result = 6%
Compound = CC(=O)N[C@H](Cc1ccc2ccccc2c1)C(=O)N[C@H](Cc1ccc(Cl)cc1)C(=O)N[C@H](Cc1cccnc1)C(=O)N[C@@H](CO)C(=O)N[C@@H](Cc1ccc(NC(=O)[C@@H]2CC(=O)NC(=O)N2)cc1)C(=O)N[C@H](Cc1ccc(NC(N)=O)cc1)C(=O)N[C@@H](CC(C)C)C(=O)N[C@@H](CCCCNC(C)C)C(=O)N1CCC[C@H]1C(=O)N[C@H](C)C(N)=O; result = -5%

Sample 3 — observed: enzyme activity; action: inhibitor; tested at: 0.5 µM; reference: control; endpoint: remaining activity
Target: Serine/threonine-protein kinase TAO3 (TAOK3, Homo sapiens, UniProt Q9H2K8)
Chain of UniProt Q9H2K8 (whole entry, looked up): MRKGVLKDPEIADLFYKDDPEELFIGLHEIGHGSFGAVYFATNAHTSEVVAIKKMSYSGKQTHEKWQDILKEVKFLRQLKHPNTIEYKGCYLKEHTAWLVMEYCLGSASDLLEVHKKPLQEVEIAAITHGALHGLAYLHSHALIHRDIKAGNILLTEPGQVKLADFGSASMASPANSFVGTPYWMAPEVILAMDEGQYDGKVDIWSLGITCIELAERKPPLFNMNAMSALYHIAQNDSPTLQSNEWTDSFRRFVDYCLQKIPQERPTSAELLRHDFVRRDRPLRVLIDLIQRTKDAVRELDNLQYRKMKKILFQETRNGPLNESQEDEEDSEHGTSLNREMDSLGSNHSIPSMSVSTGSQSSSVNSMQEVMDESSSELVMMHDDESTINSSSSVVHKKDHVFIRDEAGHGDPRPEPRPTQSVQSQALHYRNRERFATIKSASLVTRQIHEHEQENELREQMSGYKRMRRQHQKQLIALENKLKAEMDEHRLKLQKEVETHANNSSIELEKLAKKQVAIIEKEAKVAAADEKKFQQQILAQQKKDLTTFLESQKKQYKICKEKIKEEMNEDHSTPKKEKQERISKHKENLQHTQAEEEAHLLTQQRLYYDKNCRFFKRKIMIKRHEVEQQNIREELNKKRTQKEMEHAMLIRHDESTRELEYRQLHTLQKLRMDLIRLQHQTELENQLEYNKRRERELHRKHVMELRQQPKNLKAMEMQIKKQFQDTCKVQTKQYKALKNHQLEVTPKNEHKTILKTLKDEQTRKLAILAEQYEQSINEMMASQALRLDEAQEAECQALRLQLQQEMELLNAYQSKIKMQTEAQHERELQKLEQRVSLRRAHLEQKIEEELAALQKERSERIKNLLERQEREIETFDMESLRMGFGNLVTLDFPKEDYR
Compound = c1ccc(-c2[nH]ncc2-c2ccnc3ccccc23)nc1; result = 92.8%
Compound = O=C(Nc1cccc(Nc2nccc(Nc3cccc(C(F)(F)F)c3)n2)c1)C1CC1; result = 110%
Compound = COc1cc2ncnc(Nc3cccc(Cl)c3)c2cc1OC; result = 90.4%
Compound = CCN(CC)CCNC(=O)c1c(C)[nH]c(/C=C2\C(=O)Nc3ccc(Cl)cc32)c1C; result = 45.5%
Compound = O=C1C(Cl)=C(N2C(=O)CCC2=O)C(=O)c2ccccc21; result = 95.3%
Compound = Cn1nc2c3c(cccc31)C(=O)c1ccccc1-2; result = 87.6%
Compound = O=c1cc(-c2cccc3c2Sc2ccccc2S3)oc(N2CCOCC2)c1; result = 115%
Compound = N#C/C(=C\c1ccc(O)c(O)c1)C(=O)NCc1ccccc1; result = 103%
Compound = CCOc1nc(NC(=O)Cc2cc(OC)ccc2OC)cc(N)c1C#N; result = 88.6%
Compound = CN(C)C[C@H]1CCn2c(c(C3=C(c4cn(C)c5ccccc45)C(=O)NC3=O)c3ccccc32)C1; result = 96.4%
Compound = Ic1cccc(CSc2nnc(-c3ccncc3)o2)c1; result = 103%
Compound = COc1cc2c(cc1OC)-c1[nH]nc(Nc3cccc(F)c3)c1C2; result = 91.5%
Compound = Cc1cn(-c2cc(NC(=O)c3ccc(C)c(Nc4nccc(-c5cccnc5)n4)c3)cc(C(F)(F)F)c2)cn1; result = 95.9%
Compound = CN([C@@H](Cc1ccc(OS(=O)(=O)c2cccc3cnccc23)cc1)C(=O)N1CCN(c2ccccc2)CC1)S(=O)(=O)c1cccc2cnccc12; result = 89.9%
Compound = O=C(NC(NC(=S)Nc1ccc(F)c([N+](=O)[O-])c1)C(Cl)(Cl)Cl)C(c1ccccc1)c1ccccc1 (centres unmarked); result = 121%
Compound = N#Cc1c(NC(=O)c2cccc3ccccc23)sc2c1CCCC2; result = 90.2%
Compound = c1ccc(-c2cnc(Nc3ccc(OCCN4CCCC4)cc3)s2)cc1; result = 87.4%
Compound = COc1cc2ncnc(Nc3ccc(O)c(Br)c3)c2cc1OC; result = 98.8%
Compound = O=C1c2ccccc2-c2n[nH]c3cccc1c23; result = 84.7%
Compound = C[C@@H]1CCN(C(=O)CC#N)C[C@@H]1N(C)c1ncnc2[nH]ccc12; result = 94.9%
Compound = Nc1cccc(-c2cc3c(Oc4cccc(O)c4)ncnc3[nH]2)c1; result = 93.5%
Compound = Cc1nc2cc3nc(-c4cccs4)cnc3cc2n1C; result = 116%
Compound = Cc1cc2ncc(-c3ccccc3)nc2cc1C; result = 96.2%
Compound = CCN(CC)C(=O)c1ccc(Nc2nc(OCC3CCCCC3)c3[nH]cnc3n2)cc1; result = 74.2%

Sample 4 — tested at: 1 µM; endpoint: remaining binding
Compound: O=C(O)c1cc(-c2ccc(C3CCNCC3)cc2)c2ccc(-c3ccc(C(F)(F)F)cc3)cc2c1
target = FLT3 (Homo sapiens, UniProt P36888, D835H); observed = cell-free assay; technique = competition with immobilised ligand; result = 81%
target = BMPR1B (Homo sapiens, UniProt O00238); observed = cell-free assay; technique = competition with immobilised ligand; result = 100%
target = CSNK1D (Homo sapiens, UniProt P48730); observed = cell-free assay; technique = competition with immobilised ligand; result = 100%
target = TXK (Homo sapiens, UniProt P42681); observed = binding; technique = competition with immobilised ligand; result = 100%
target = CDK19 (Homo sapiens, UniProt Q9BWU1); technique = competition binding; result = 97%
target = EPHA7 (Homo sapiens, UniProt Q15375); observed = cell-free assay; technique = competition with immobilised ligand; result = 100%
target = GSK3B (Homo sapiens, UniProt P49841); observed = cell-free assay; technique = competition with immobilised ligand; result = 100%
target = CSNK1A1L (Homo sapiens, UniProt Q8N752); observed = cell-free assay; technique = competition with immobilised ligand; result = 100%
target = ACVR1B (Homo sapiens, UniProt P36896); observed = cell-free assay; technique = competition with immobilised ligand; result = 100%
target = BMP2K (Homo sapiens, UniProt Q9NSY1); observed = cell-free assay; technique = competition with immobilised ligand; result = 84%
target = EGFR (Homo sapiens, UniProt P00533, T790M); observed = cell-free assay; technique = competition with immobilised ligand; result = 96%
target = MAP3K4 (Homo sapiens, UniProt Q9Y6R4); observed = cell-free assay; technique = competition with immobilised ligand; result = 100%
target = Receptor-type tyrosine-protein kinase FLT3, autoinhibited (FLT3, Homo sapiens, UniProt P36888); observed = cell-free assay; technique = competition with immobilised ligand; result = 100%
target = MET (Homo sapiens, UniProt P08581, M1250T); observed = cell-free assay; technique = competition with immobilised ligand; result = 86%
target = CDK13 (Homo sapiens, UniProt Q14004); observed = cell-free assay; technique = competition with immobilised ligand; result = 100%
target = MYLK2 (Homo sapiens, UniProt Q9H1R3); observed = cell-free assay; technique = competition with immobilised ligand; result = 100%
target = HASPIN (Homo sapiens, UniProt Q8TF76); observed = cell-free assay; technique = competition with immobilised ligand; result = 100%
target = SIK2 (Homo sapiens, UniProt Q9H0K1); observed = cell-free assay; technique = competition with immobilised ligand; result = 100%
target = NEK3 (Homo sapiens, UniProt P51956); observed = cell-free assay; technique = competition with immobilised ligand; result = 100%
target = MAPK11 (Homo sapiens, UniProt Q15759); observed = cell-free assay; technique = competition with immobilised ligand; result = 100%
target = CSNK2A2 (Homo sapiens, UniProt P19784); observed = cell-free assay; technique = competition with immobilised ligand; result = 100%
target = STK36 (Homo sapiens, UniProt Q9NRP7); observed = cell-free assay; technique = competition with immobilised ligand; result = 100%
target = Non-receptor tyrosine-protein kinase TYK2, JH1 (TYK2, Homo sapiens, UniProt P29597); observed = cell-free assay; technique = competition with immobilised ligand; result = 100%
target = TTK (Homo sapiens, UniProt P33981); observed = cell-free assay; technique = competition with immobilised ligand; result = 100%
target = MAP3K1 (Homo sapiens, UniProt Q13233); observed = cell-free assay; technique = competition with immobilised ligand; result = 100%

For quick reference, copied from above (sample 3):
Compound = Cc1nc2cc3nc(-c4cccs4)cnc3cc2n1C; result = 116%
Compound = CN([C@@H](Cc1ccc(OS(=O)(=O)c2cccc3cnccc23)cc1)C(=O)N1CCN(c2ccccc2)CC1)S(=O)(=O)c1cccc2cnccc12; result = 89.9%
Compound = COc1cc2ncnc(Nc3ccc(O)c(Br)c3)c2cc1OC; result = 98.8%
Compound = Ic1cccc(CSc2nnc(-c3ccncc3)o2)c1; result = 103%
Compound = O=C(Nc1cccc(Nc2nccc(Nc3cccc(C(F)(F)F)c3)n2)c1)C1CC1; result = 110%
Compound = Cc1cn(-c2cc(NC(=O)c3ccc(C)c(Nc4nccc(-c5cccnc5)n4)c3)cc(C(F)(F)F)c2)cn1; result = 95.9%
Compound = COc1cc2ncnc(Nc3cccc(Cl)c3)c2cc1OC; result = 90.4%
Compound = O=C1C(Cl)=C(N2C(=O)CCC2=O)C(=O)c2ccccc21; result = 95.3%
Compound = O=C1c2ccccc2-c2n[nH]c3cccc1c23; result = 84.7%
Compound = O=C(NC(NC(=S)Nc1ccc(F)c([N+](=O)[O-])c1)C(Cl)(Cl)Cl)C(c1ccccc1)c1ccccc1 (centres unmarked); result = 121%
